Measurements of several laboratories.
Each line is one published result; not all experiments were run side by side. ± marks the error that the study gave.
SPT15 full length assumed: SPT15 full length assumed (Saccharomyces cerevisiae, UniProt P13393)
Chain of UniProt P13393 (whole entry, looked up): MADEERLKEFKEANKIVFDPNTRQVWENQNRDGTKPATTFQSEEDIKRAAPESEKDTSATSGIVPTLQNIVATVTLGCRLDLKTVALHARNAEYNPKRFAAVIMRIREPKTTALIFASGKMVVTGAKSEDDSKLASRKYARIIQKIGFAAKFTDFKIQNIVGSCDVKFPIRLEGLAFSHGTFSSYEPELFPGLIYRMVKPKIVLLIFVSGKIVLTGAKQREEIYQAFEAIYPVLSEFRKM
U2AF2: U2AF2 148-342 (Homo sapiens, UniProt P26368)
Chain of UniProt P26368 (whole entry, looked up): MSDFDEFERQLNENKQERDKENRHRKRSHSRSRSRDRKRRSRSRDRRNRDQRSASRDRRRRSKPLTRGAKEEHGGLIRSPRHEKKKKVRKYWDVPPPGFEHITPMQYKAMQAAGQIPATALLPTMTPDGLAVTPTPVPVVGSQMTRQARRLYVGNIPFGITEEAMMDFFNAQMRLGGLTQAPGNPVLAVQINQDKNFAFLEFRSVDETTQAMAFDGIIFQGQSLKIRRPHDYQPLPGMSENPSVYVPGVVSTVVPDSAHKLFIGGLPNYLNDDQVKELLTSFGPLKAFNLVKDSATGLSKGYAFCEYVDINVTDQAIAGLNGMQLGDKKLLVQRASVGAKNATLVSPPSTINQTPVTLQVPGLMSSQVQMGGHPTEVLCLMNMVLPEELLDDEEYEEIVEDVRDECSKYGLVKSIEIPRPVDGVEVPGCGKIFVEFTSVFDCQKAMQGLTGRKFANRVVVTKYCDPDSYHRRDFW
B1: adiponectin; sequence looked up; chain ETTTQGPGVLLPLPKGACTGWMAGIPGHPGHNGAPGRDGRDGTPGEKGEKGDPGLIGPKGDIGETGVPGAEGPRGFPGIQGRKGEPGEGAYVYRSAFSVGLETYVTIPNMPIRFTKIFYNQQNHYDGSTGKFHCNIPGLYYFAYHITVYMKDVKVSLFKKDKAMLFTYDQYQENNVDQASGSVLLHLEVGDQVWLQVYGEGERNGLYADNDNDSTFTGFLLYHDTN
B2: human DDX21; sequence looked up; chain MPGKLRSDAGLESDTAMKKGETLRKQTEEKEKKEKPKSDKTEEIAEEEETVFPKAKQVKKKAEPSEVDMNSPKSKKAKKKEEPSQNDISPKTKSLRKKKEPIEKKVVSSKTKKVTKNEEPSEEEIDAPKPKKMKKEKEMNGETREKSPKLKNGFPHPEPDCNPSEAASEESNSEIEQEIPVEQKEGAFSNFPISEETIKLLKGRGVTFLFPIQAKTFHHVYSGKDLIAQARTGTGKTFSFAIPLIEKLHGELQDRKRGRAPQVLVLAPTRELANQVSKDFSDITKKLSVACFYGGTPYGGQFERMRNGIDILVGTPGRIKDHIQNGKLDLTKLKHVVLDEVDQMLDMGFADQVEEILSVAYKKDSEDNPQTLLFSATCPHWVFNVAKKYMKSTYEQVDLIGKKTQKTAITVEHLAIKCHWTQRAAVIGDVIRVYSGHQGRTIIFCETKKEAQELSQNSAIKQDAQSLHGDIPQKQREITLKGFRNGSFGVLVATNVAARGLDIPEVDLVIQSSPPKDVESYIHRSGRTGRAGRTGVCICFYQHKEEYQLVQVEQKAGIKFKRIGVPSATEIIKASSKDAIRLLDSVPPTAISHFKQSAEKLIEEKGAVEALAAALAHISGATSVDQRSLINSNVGFVTMILQCSIEMPNISYAWKELKEQLGEEIDSKVKGMVFLKGKLGVCFDVPTASVTEIQEKWHDSRRWQLSVATEQPELEGPREGYGGFRGQREGSRGFRGQRDGNRRFRGQREGSRGPRGQRSGGGNKSNRSQNKGQKRSFSKAFGQ
B3: PP methylesterase 1 (human); sequence looked up; chain SALEKSMHLGRLPSRPPLPGSGGSQSGAKMRMGPGRKRDFSPVPWSQYFESMEDVEVENETGKDTFRVYKSGSEGPVLLLLHGGGHSALSWAVFTAAIISRVQCRIVALDLRSHGETKVKNPEDLSAETMAKDVGNVVEAMYGDLPPPIMLIGHSMGGAIAVHTASSNLVPSLLGLCMIDVVEGTAMDALNSMQNFLRGRPKTFKSLENAIEWSVKSGQIRNLESARVSMVGQVKQCEGITSPEGSKSIVEGIIEEEEEDEEGSESISKRKKEDDMETKKDHPYTWRIELAKTEKYWDGWFRGLSNLFLSCPIPKLLLLAGVDRLDKDLTIGQMQGKFQMQVLPQCGHAVHEDAPDKVAEAVATFLIRHRFAEPIGGFQCVFPGC
B4: human TUBB; sequence looked up; chain MREIVHIQAGQCGNQIGAKFWEVISDEHGIDPTGTYHGDSDLQLDRISVYYNEATGGKYVPRAILVDLEPGTMDSVRSGPFGQIFRPDNFVFGQSGAGNNWAKGHYTEGAELVDSVLDVVRKEAESCDCLQGFQLTHSLGGGTGSGMGTLLISKIREEYPDRIMNTFSVVPSPKVSDTVVEPYNATLSVHQLVENTDETYCIDNEALYDICFRTLKLTTPTYGDLNHLVSATMSGVTTCLRFPGQLNADLRKLAVNMVPFPRLHFFMPGFAPLTSRGSQQYRALTVPELTQQVFDAKNMMAACDPRHGRYLTVAAVFRGRMSMKEVDEQMLNVQNKNSSYFVEWIPNNVKTAVCDIPPRGLKMAVTFIGNSTAIQELFKRISEQFTAMFRRKAFLHWYTGEGMDEMEFTEAESNMNDLVSEYQQYQDATAEEEEDFGEEAEEEA
B5: peroxiredoxin-1 (human); sequence looked up; chain SSGNAKIGHPAPNFKATAVMPDGQFKDISLSDYKGKYVVFFFYPLDFTFVCPTEIIAFSDRAEEFKKLNCQVIGASVDSHFCHLAWVNTPKKQGGLGPMNIPLVSDPKRTIAQDYGVLKADEGISFRGLFIIDDKGILRQITVNDLPVGRSVDETLRLVQAFQFTDKHGEVCPAGWKPGSDTIKPDVQKSKEYFSKQK

Substance	tested on	assay	test system	setting	how to read	measurement	result
PSMD3 (human)	CYB5R4 knockout human cells	PP4 interaction, 3xFLAG-PP4C IP-MS	–	concentration not given	baseline: CYB5R4 KO over parental	log2 fold change	-0.43
MVDPIGMHY	Jurkat NFAT-eGFP expressing engineered TCR	NFAT reporter gene	peptide	concentration not given, HLA-A*01:01 presentation	–	GFP-positive cells	0.619%
YGRKKRRQRRRAQLQLDPETGEFLPIQ	SH-SY5Y Neh2-luc reporter	–	peptide	–	baseline: wild-type peptide over mutant	EC50 fold improvement	2 to 3 fold
MTVCNASQRQAHAQATAVSL	SW480	phage binding	peptide	–	baseline: targeting over control phage	selectivity ratio	3.5 ± 0.75
ATDIIPLAM	Jurkat expressing engineered TCR	NFAT-eGFP reporter, fluorescence microscopy	peptide	concentration not given, HLA-A*01:01 on EL4 cells	–	GFP-positive cells	0.487%
Peginesatide	UT7/EPO	tyrosine phosphorylation, LC-MS/MS phosphoproteomics, trypsin, item: SHIP1 tyrosine 915	–	10 nM, 15 min, with: 10 U/mL EPO	baseline: vehicle	phosphorylation level	46.1 fold
B1 (adiponectin)	HUVEC	real-time PCR, item: VCAM-1	–	15 µg/mL, 24 h, unit not given, with: TNF-α and IFN-γ	baseline: stimulated untreated	mRNA level	0.84 ± 0.09
B2 (human DDX21)	CYB5R4 knockout human cells	PP4 interaction, 3xFLAG-PP4C IP-MS	–	concentration not given	baseline: CYB5R4 KO over parental	log2 fold change	-0.72
colistin	Acinetobacter baumannii	broth microdilution	clinical isolate RKI-No_14/16	–	–	MIC	≤ 0.5 µg/mL
B3 (PP methylesterase 1)	CYB5R4 knockout human cells	PP4 interaction, 3xFLAG-PP4C IP-MS	–	concentration not given	baseline: CYB5R4 KO over parental	log2 fold change	-0.0171
YLEIFQHSY	Jurkat expressing engineered TCR	NFAT-eGFP reporter, fluorescence microscopy	peptide	concentration not given, HLA-A*01:01 on EL4 cells	–	GFP-positive cells	0.461%
B4 (human TUBB)	CYB5R4 knockout human cells	PP4 interaction, 3xFLAG-PP4C IP-MS	–	concentration not given	baseline: CYB5R4 KO over parental	log2 fold change	-0.65
ESDPIVAQY	Jurkat NFAT-eGFP expressing engineered TCR	NFAT reporter gene	peptide	concentration not given, HLA-A*01:01 presentation	–	GFP-positive cells	4.11%
CTGAAGGGGGGGCTATAAAAGTTTATGGGGGCTCCTCAAGTCAATCGGTCC (dsDNA; 5'-amino-C6 primer)	SPT15 full length assumed	array	double-stranded DNA, one strand shown	TBP alone	–	Kd	16.6 ± 2 nM
CUCAUUUUC (ssRNA)	U2AF2	sequencing of bound RNA	RNA	motif only	–	Kd	5020 nM
B5 (peroxiredoxin-1)	CYB5R4 knockout human cells	PP6 interaction, 3xFLAG-PP6C IP-MS	–	concentration not given	baseline: CYB5R4 KO over parental	log2 fold change	0.2
QINPIGHEY	Jurkat expressing engineered TCR	NFAT-eGFP reporter, fluorescence microscopy	peptide	concentration not given, HLA-A*01:01 on EL4 cells	–	GFP-positive cells	0.583%
GAGUGAUUU (ssRNA)	U2AF2	sequencing of bound RNA	RNA	motif only	–	Kd	2310 nM
epoetin alfa	UT7/EPO	RT-qPCR, item: CD69	–	concentration not given, 90 min	baseline: vehicle	mRNA fold induction	11.7 fold
CTTGAAGGGGGGCTATAAAAGGGGGTGGGGGCGCGTCAAGTCAATCGGTCC (dsDNA; 5'-amino-C6 primer)	SPT15 full length assumed	array	double-stranded DNA, one strand shown	TBP alone	–	Kd	0.32 ± 0.06 nM

A few entries again:
Substance	tested on	assay	test system	setting	how to read	measurement	result
B1 (adiponectin)	HUVEC	real-time PCR, item: VCAM-1	–	15 µg/mL, 24 h, unit not given, with: TNF-α and IFN-γ	baseline: stimulated untreated	mRNA level	0.84 ± 0.09
B2 (human DDX21)	CYB5R4 knockout human cells	PP4 interaction, 3xFLAG-PP4C IP-MS	–	concentration not given	baseline: CYB5R4 KO over parental	log2 fold change	-0.72
colistin	Acinetobacter baumannii	broth microdilution	clinical isolate RKI-No_14/16	–	–	MIC	≤ 0.5 µg/mL
